Assay results of several laboratories.
Numbers after ± are the reported error.

SMILES	assay	system	conditions	scale	quantity	result
CCN(Cc1ccccc1)C(=O)CCc1nc(CN2CCN(C(=O)Cc3ccc(OC)c(OC)c3)CC2)no1	current clamp	L4-L6 DRG neurons, rat CCI model	1 µM	–	resting membrane potential	-65.8 ± 2.68 mV
Cc1cc(O)cc(C)c1CC(N)C(=O)NC1CCNc2c(CCc3ccccc3)cc(Cc3ccccc3)cc21 (stereo not drawn)	warm water tail withdrawal	male C57BL/6 mice	intraperitoneal, 10 mg/kg	–	antinociception	inactive
CC(C)C[C@@H]1NC(=O)[C@@H](Cc2c[nH]c3ccccc23)NC(=O)[C@H](CCCN)NC(=O)[C@@H](CO)NC(=O)[C@H](CCC(N)=O)NC(=O)[C@@H](CCC(=O)O)NC(=O)[C@H](CO)NC(=O)[C@@H](Cc2c[nH]c3ccccc23)NC1=O	ELISA	human plasma	concentration not given	–	pre-beta HDL concentration	58 ± 12 µg/mL
CC[C@H](C)[C@H](NC(=O)[C@@H](NC(=O)[C@H](CC(=O)O)NC(C)=O)[C@@H](C)O)C(=O)N[C@@H](CCCNC(=N)N)C(=O)N[C@@H](CC(C)C)C(=O)N[C@@H](CC(C)C)C(=O)N[C@@H](Cc1ccccc1)C(=O)N[C@@H](CCC(N)=O)C(=O)N[C@@H](CC(C)C)C(=O)N[C@@H](CCSC)C(=O)N[C@@H](CCCNC(=N)N)C(=O)N1CCC[C@H]1C(=O)N1CCC[C@H]1C(=O)N[C@@H](CC(N)=O)C(=O)N[C@@H](CCSC)C(=O)N[C@H](C(=O)N1CCC[C@H]1C(=O)N[C@@H](C)C(=O)N[C@H](C(=O)N[C@@H](CC(N)=O)C(=O)N[C@@H](C)C(N)=O)C(C)C)[C@@H](C)O	measured: HA-19 tetramer	antigen-experienced tetramer+ CD4 T cells, healthy adults, HLA-DRB1*0101	dose not given	–	α4β7− CCR9− cells	64%
CC(C)C[C@@H]1NC(=O)[C@H](C(C)C)NC(=O)[C@H](CO)NC(=O)CNC(=O)CNC(=O)[C@H](CCCNC(=N)N)NC(=O)[C@@H]2CCCN2C(=O)[C@@H](NC(=O)CC[C@H](NC(=O)c2ccc(N(C)Cc3cnc4nc(N)nc(N)c4n3)cc2)C(=O)O)C(C)(C)SSC[C@@H](C(=O)O)NC(=O)CNC(=O)[C@H]([C@@H](C)O)NC(=O)[C@H](C(C)C)NC1=O	–	rat adjuvant arthritis	iv, 0.05 mg/kg once daily, day 14	–	spleen weight	0.452 ± 0.0139 g
Cc1cc(O)cc(C)c1C[C@H](N)C(=O)N[C@H](C)C(=O)NCC(=O)N(C)[C@@H](Cc1ccccc1)C(=O)N1CCC[C@H]1C(=O)N[C@@H](CC(C)C)C(=O)N[C@@H](Cc1c[nH]c2ccccc12)C(=O)NCc1cc(C(F)(F)F)cc(C(F)(F)F)c1	agonist	guinea pig ileum, mouse vas deferens	–	baseline: MOR over DOR	selectivity ratio	1.5
CCCCCCCCCCCCCCCC(=O)N[C@@H](CCC(=O)NCCOCCOCCC(=O)NCCOCCOCCC(=O)NCCCC[C@H](NC(=O)[C@H](CC(=O)O)NC(=O)[C@H](CC(C)C)NC(=O)[C@H](Cc1ccc(O)cc1)NC(=O)[C@H](CCCCN)NC(=O)[C@H](CO)NC(=O)[C@H](Cc1ccc(O)cc1)NC(=O)[C@H](CC(=O)O)NC(=O)[C@H](CO)NC(=O)[C@@H](NC(=O)[C@H](Cc1ccccc1)NC(=O)[C@@H](NC(=O)CNC(=O)[C@H](CCC(N)=O)NC(=O)[C@@H](CO)NC(=O)[C@@H](N)Cc1c[nH]cn1)[C@@H](C)O)[C@@H](C)O)C(=O)N[C@@H](CCCNC(=N)N)C(=O)N[C@@H](CCCNC(=N)N)C(=O)N[C@@H](C)C(=O)N[C@@H](CCC(N)=O)C(=O)N[C@@H](CC(=O)O)C(=O)N[C@@H](Cc1ccccc1)C(=O)N[C@H](C(=O)N[C@@H](CCC(N)=O)C(=O)N[C@@H](Cc1c[nH]c2ccccc12)C(=O)N[C@@H](CC(C)C)C(=O)N[C@@H](CC(C)C)C(=O)N[C@@H](CC(N)=O)C(=O)N[C@H](C(=O)NCC(=O)NCC(=O)N1CCC[C@H]1C(=O)N[C@@H](CO)C(=O)N[C@@H](CO)C(=O)NCC(=O)N[C@@H](C)C(=O)N1CCC[C@H]1C(=O)N1CCC[C@H]1C(=O)N1CCC[C@H]1C(=O)N[C@@H](CO)C(N)=O)[C@@H](C)O)C(C)C)C(=O)O	flow cytometry	Schistosoma japonicum-infected mice, liver	dose not given	–	liver macrophages and Tregs	decreased
CS(C)(=O)=Nc1ccc(-c2ccc(-c3nc4cc(O[C@@H]5CO[C@H]6[C@@H]5OC[C@H]6O)[nH]c4cc3F)cc2)cc1	–	ob/ob mouse, AMLN diet NASH model	oral, 5 mg/kg daily, 8 weeks	baseline: vehicle	plasma transaminases	decreased
CC[C@H](C)[C@H](NC(=O)[C@H](C)NC(=O)CNC(=O)[C@@H](N)CCSC)C(=O)N[C@@H](C)C(=O)N[C@@H](CCCCN)C(=O)N[C@@H](CC(C)C)C(=O)N[C@H](C(=O)N[C@@H](C)C(=O)N[C@@H](CCCCN)C(=O)N[C@@H](Cc1ccccc1)C(=O)NCC(=O)N[C@@H](Cc1c[nH]c2ccccc12)C(=O)N1CCC[C@H]1C(=O)N[C@@H](Cc1ccccc1)C(=O)N[C@H](C(=O)N[C@@H](CCCCN)C(=O)N[C@@H](CCCCN)C(=O)N[C@@H](Cc1ccccc1)C(=O)N[C@@H](Cc1ccc(O)cc1)C(=O)N[C@@H](CCCCN)C(=O)N[C@@H](CCC(N)=O)C(=O)N[C@H](C(=O)N[C@@H](CCSC)C(=O)N[C@@H](CCC(N)=O)C(=O)N[C@@H](Cc1ccccc1)C(=O)N[C@H](C(=O)NCC(=O)N[C@@H](CCC(N)=O)C(=O)NCC(=O)N[C@@H](Cc1c[nH]c2ccccc12)C(=O)N[C@H](C(=O)N[C@H](C(=O)N[C@@H](CC(=O)O)C(=O)N[C@@H](CCC(N)=O)C(=O)N[C@H](C(=O)N[C@@H](CCC(=O)O)C(=O)N[C@@H](CCCCN)C(=O)N[C@@H](Cc1c[nH]c2ccccc12)C(=O)N[C@@H](CCCNC(=N)N)C(=O)N[C@@H](CCCCN)C(=O)N[C@@H](CCCNC(=N)N)C(=O)N[C@@H](Cc1c[nH]cn1)C(=O)O)[C@@H](C)CC)[C@@H](C)CC)[C@@H](C)O)[C@@H](C)CC)[C@@H](C)CC)[C@@H](C)CC)C(C)C	–	PG/PE 1:1 liposomes	MIC	baseline: Triton X-100	calcein release	25.6 ± 1.4%
COc1ccc(F)cc1S(=O)(=O)Nc1cnc2c(c1)C(=O)NCCO2	measured: pyrophosphate	C57BL/6J mouse	oral, 1 or 10 mg/kg, first 6 h	baseline: vehicle	plasma PPi level	increased
COC[C@@H](NC(C)=O)C(=O)NCc1ccc(OCc2ccccc2F)cc1	formalin test, phase II	mouse	ip, 7.0 mg/kg	baseline: vehicle	licking time	49%
C[C@@H](O)[C@H](NC(=O)[C@@H]1CSSC[C@H](NC(=O)[C@@H](Cc2ccccc2)NC(=O)CN2CCN(CC(N)=O)CCN(CC(N)=O)CCN(CC(N)=O)CC2)C(=O)N[C@@H](Cc2ccc(O)cc2)C(=O)N[C@H](Cc2c[nH]c3ccccc23)C(=O)N[C@@H](CCCCN)C(=O)N[C@@H]([C@@H](C)O)C(=O)N1)C(=O)O [lead-212 labelled]	–	mice, AR-42J tumour model	single injection of 5 µCi	–	median survival	6.3 weeks
CC[C@H](C)[C@H](NC(=O)[C@H](CCCNC(=N)N)NC(=O)[C@H](CCC(N)=O)NC(=O)[C@H](CC(=O)O)NC(=O)[C@H](CC(C)C)NC(=O)[C@H](CC(C)C)NC(=O)[C@H](CC(N)=O)NC(=O)[C@H](Cc1ccccc1)NC(=O)[C@H](CC(=O)O)NC(=O)[C@@H](NC(=O)[C@@H](NC(=O)[C@H](CC(N)=O)NC(=O)CNC(=O)[C@H](CO)NC(C)=O)C(C)C)[C@@H](C)CC)C(=O)N[C@H](C(=O)N[C@@H](Cc1c[nH]c2ccccc12)C(=O)N[C@@H](CCC(N)=O)C(=O)N[C@@H](CC(N)=O)C(=O)N[C@@H](Cc1c[nH]c2ccccc12)C(=O)N[C@@H](Cc1ccc(O)cc1)C(=O)N[C@@H](C)C(N)=O)[C@@H](C)CC	measured: HA-52 tetramer	antigen-experienced tetramer+ CD4 T cells, healthy adults, HLA-DRB1*0101	dose not given	–	α4β7− CCR9+ cells	5.56%
CCCc1cc(Cc2ccccc2)cc2c1NCCC2NC(=O)C(N)Cc1c(C)cc(O)cc1C (stereo not drawn)	warm water tail withdrawal	male C57BL/6 mice	intraperitoneal, 10 mg/kg	–	antinociception	inactive
Cc1cnc(Nc2ccc(C3CCN(C)CC3)c(F)c2)nc1Nc1ccc(Cl)c(NS(=O)(=O)C(C)(C)C)c1	–	U-266 multiple myeloma, non-targeting control, mice, U-266 xenograft	subcutaneous, 10 mg/kg/day, Mon-Fri from day 20	–	median survival	41 days
O=C(O)CCn1c(=O)oc2cc(Cl)c(Cl)cc21	–	Kmo knockout mouse, plasma	30 mg/kg	–	plasma kynurenine change	no effect
CC[C@H](C)[C@H](NC(=O)[C@H](Cc1c[nH]c2ccccc12)NC(=O)[C@H](CCCNC(=N)N)NC(=O)[C@H](CCCCN)NC(=O)[C@H](CC(C)C)NC(=O)[C@H](CC(=O)O)NC(=O)[C@H](Cc1ccccc1)NC(=O)[C@H](C)NC(=O)[C@H](Cc1ccc(O)cc1)NC(=O)[C@H](CC(N)=O)NC(=O)[C@H](Cc1ccc(O)cc1)NC(=O)[C@H](CCCNC(=N)N)NC(=O)[C@H](Cc1ccc(O)cc1)NC(=O)[C@H](Cc1ccc(O)cc1)NC(=O)[C@@H](NC(=O)[C@H](CC(C)C)NC(=O)[C@H](C)NC(=O)[C@H](CC(N)=O)NC(=O)[C@H](Cc1ccc(O)cc1)NC(C)=O)[C@@H](C)CC)C(=O)N[C@@H](Cc1ccc(O)cc1)C(=O)N[C@@H](CC(C)C)C(N)=O	measured: HA-15 tetramer	antigen-experienced tetramer+ CD4 T cells, healthy adults, HLA-DRB1*0101	dose not given	–	α4β7− CCR9+ cells	0%
CC[C@H](C)[C@H](NC(=O)[C@H](C)NC(=O)CNC(=O)[C@@H](N)CCSC)C(=O)N[C@@H](C)C(=O)N[C@@H](CCCCN)C(=O)N[C@@H](CC(C)C)C(=O)N[C@H](C(=O)N[C@@H](C)C(=O)N[C@@H](CCCCN)C(=O)N[C@@H](Cc1ccccc1)C(=O)NCC(=O)N[C@@H](Cc1c[nH]c2ccccc12)C(=O)N1CCC[C@H]1C(=O)N[C@@H](Cc1ccccc1)C(=O)N[C@H](C(=O)N[C@@H](CCCCN)C(=O)N[C@@H](CCCCN)C(=O)N[C@@H](Cc1ccccc1)C(=O)N[C@@H](Cc1ccc(O)cc1)C(=O)N[C@@H](CCCCN)C(=O)N[C@@H](CCC(N)=O)C(=O)N[C@H](C(=O)N[C@@H](CCSC)C(=O)N[C@@H](CCC(N)=O)C(=O)N[C@@H](Cc1ccccc1)C(=O)N[C@H](C(=O)NCC(=O)N[C@@H](CCC(N)=O)C(=O)NCC(=O)N[C@@H](Cc1c[nH]c2ccccc12)C(=O)N[C@H](C(=O)N[C@H](C(=O)N[C@@H](CC(=O)O)C(=O)N[C@@H](CCC(N)=O)C(=O)N[C@H](C(=O)N[C@@H](CCC(=O)O)C(=O)N[C@@H](CCCCN)C(=O)N[C@@H](Cc1c[nH]c2ccccc12)C(=O)N[C@@H](CC(C)C)C(=O)N[C@@H](CCCCN)C(=O)N[C@@H](CCCNC(=N)N)C(=O)N[C@@H](Cc1c[nH]cn1)C(=O)O)[C@@H](C)CC)[C@@H](C)CC)[C@@H](C)O)[C@@H](C)CC)[C@@H](C)CC)[C@@H](C)CC)C(C)C	–	PG/PE 1:1 liposomes	MIC	baseline: Triton X-100	calcein release	30.5 ± 1.3%
C[C@]12CC[C@H](O)CC1CCC1C2[C@H](O)C(=O)[C@]2(C)[C@@H](c3ccc(=O)oc3)CC[C@]12O (stereo partly drawn)	sulfation, substrate	guinea pig liver cytosol	–	–	Vmax	0.017 ± 0.001 nmol/min/mg
COC[C@@H](NC(C)=O)C(=O)NCc1ccc(OCc2ccccc2)cc1	formalin test, phase I	mouse	ip, 5.8 mg/kg	baseline: vehicle	licking time	77%
Cc1ccc(/C=C/C(=O)O)cc1-c1cc2c(cc1C)C(C)(C)CCC2(C)C	RNA sequencing, measured: Lrrc4c mRNA	rat, brain	dose not given, 24 h, single dose	baseline: vehicle	log2 fold change	-0.5

Excerpt of the above:
SMILES	assay	system	conditions	scale	quantity	result
COC[C@@H](NC(C)=O)C(=O)NCc1ccc(OCc2ccccc2)cc1	formalin test, phase I	mouse	ip, 5.8 mg/kg	baseline: vehicle	licking time	77%
CC(C)C[C@@H]1NC(=O)[C@@H](Cc2c[nH]c3ccccc23)NC(=O)[C@H](CCCN)NC(=O)[C@@H](CO)NC(=O)[C@H](CCC(N)=O)NC(=O)[C@@H](CCC(=O)O)NC(=O)[C@H](CO)NC(=O)[C@@H](Cc2c[nH]c3ccccc23)NC1=O	ELISA	human plasma	concentration not given	–	pre-beta HDL concentration	58 ± 12 µg/mL
CCN(Cc1ccccc1)C(=O)CCc1nc(CN2CCN(C(=O)Cc3ccc(OC)c(OC)c3)CC2)no1	current clamp	L4-L6 DRG neurons, rat CCI model	1 µM	–	resting membrane potential	-65.8 ± 2.68 mV
